Measurements collected from several papers.
Numbered parts are unrelated; each lists some results of a single study. Changes are numbered by the printed parent chain.

Block 1
Target: RING finger protein unkempt homolog, zinc fingers 1-6, SBP tag (UNK, Homo sapiens, UniProt Q9C0B0, residues 30-357)
Sequence of UniProt Q9C0B0 (30-357, looked up): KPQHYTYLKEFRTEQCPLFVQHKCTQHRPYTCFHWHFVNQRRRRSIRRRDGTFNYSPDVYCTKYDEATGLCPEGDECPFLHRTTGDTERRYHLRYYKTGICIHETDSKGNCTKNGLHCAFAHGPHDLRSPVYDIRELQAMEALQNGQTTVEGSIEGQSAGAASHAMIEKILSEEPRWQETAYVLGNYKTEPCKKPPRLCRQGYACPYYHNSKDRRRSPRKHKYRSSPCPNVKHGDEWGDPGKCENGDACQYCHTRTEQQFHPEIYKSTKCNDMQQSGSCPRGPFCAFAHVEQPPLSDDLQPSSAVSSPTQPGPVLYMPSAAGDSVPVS
Method: RNA Bind-n-Seq
Form: RNA
Sample: in vitro
Tested at: 100 nM
Setting: RNA with constant flanks, vertebrate orthologous sites, ends assumed
Relative to: input RNA pool
Reading: higher = stronger binding
All sequences stand within: GGGAGUUCUACAGUCCGACGAUC … CAACAGAGGAUUGAGCAUCA
| Sequence | bound/input enrichment |
| --- | --- |
| CCUACAAUAAUGAAAACCUACAGGAAUUUUUUUAUUUUUCAUUUUCCCCUUAGGCAUAUUUAGUAUUUUUCCCCCAGGCAGAUCAUUCUGAGUGUGCGAGUGUGUGUGCACAUGUUACAA | 2.5 ratio |
| ACAGUCCUCUACUUAAACUGGUAUUUUCAAACAAUAGGAAGCUAUUUUUUUUUUUUACAGUUUAGUAUCUUGUUUCUACAUGGAAGACUAAACAUGCUUAUAGCUAAAUGUGGUCUUUGC | 0.417 ratio |
| CAGCUGAUUCGCUCAUCGGGAGAGCUGCACAUAUAGCCGUUCUUGAUUCAGAAAUCUUCUUAGAGAAAUUCUUUCUGGUUGCUGCCCUUAAAUAUUUUCAAUAGGAUAAAAACGCUGUUA | 0.843 ratio |
| AGCAACCCAAGGAUUCAGGACUGGUUUUACAAAUAUACCAAGUAGAUAUGGAACUAACAAUAGAAUUGGACAACCAAGACCAUGACAUACUGUGAUUUAAUUUAUUUUAUGAGGAAUAUU | 0.501 ratio |
| CUUUUUAUUGAUCAGGUCUAUAAAUGUGUACUAAAAAUCAGGGUUUAUUCAUAAACAGAUUAGUAAAUUUUUUUUAAAUGUUUUUUCUCCAUUGUUGUAGUGGUAUGCCUUCAGUAAACU | 1.11 ratio |
| AGAAAAUUUUAACCAAGAAUCUGAAGGUAGAAAUACAGGACCGUGGUUGUCUUCCUCACUUAGAAAUAGAUGCACACCUUUGUUCUCUAGAAGGAGACGAGAGGGACGAGAUGAAUCUUC | 0.521 ratio |
| AAAUUUAUUUCAUGCCCUGGACUCCCUAUCGUACUGAUACUUUAAUAGAAUAUGCUUCUUUAGAAGAUUUCCAAAAUAGUCGCCAAACAACGACAUAUAAACUUCCAAAUCGAGUAGAUG | 1.07 ratio |
| CUGUUUUGUGAAACAUGUCUACCCAGAAAAGUAGCAUUCUAUAAAUACUAUUAAACAACUUAGCUAUAUUAUUUUUAAGUAUUAAAUUAUAUGUCAAGCAGUUAAAGUGAAUUUCAGAGU | 0.89 ratio |

Block 2
Target: Interferon regulatory factor 3, full length, phosphomimetic (IRF3, Homo sapiens, UniProt Q14653, residues 1-427, S386D/S396D/S398D/S402D/T404D/S405D)
Method: protein-binding microarray
Form: double-stranded DNA, one strand shown
Sample: in vitro
Tested at: 2540 nM top
Setting: 60-bp whole probe
Together with: salmon DNA 0.4 mg/ml
Relative to: random background probes
Reading: higher = stronger binding
All sequences stand within: GCCTAGCAC … GTCTTGATTCGCTTGACGCTGCTG
Residues (chain): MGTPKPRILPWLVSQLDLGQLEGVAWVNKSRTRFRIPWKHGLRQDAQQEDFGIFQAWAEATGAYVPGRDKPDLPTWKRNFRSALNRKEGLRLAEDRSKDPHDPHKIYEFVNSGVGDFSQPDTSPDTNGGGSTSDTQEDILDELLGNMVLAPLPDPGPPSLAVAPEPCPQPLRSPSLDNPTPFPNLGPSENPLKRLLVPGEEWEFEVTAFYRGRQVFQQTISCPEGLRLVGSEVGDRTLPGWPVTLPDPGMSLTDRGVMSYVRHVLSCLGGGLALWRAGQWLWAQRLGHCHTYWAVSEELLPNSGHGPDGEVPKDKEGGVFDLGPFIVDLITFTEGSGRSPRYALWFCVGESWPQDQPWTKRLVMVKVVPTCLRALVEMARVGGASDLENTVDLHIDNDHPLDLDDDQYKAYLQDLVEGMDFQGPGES
| Sequence | fitted relative affinity [z-score] |
| --- | --- |
| TTATGTCTCCTACTGCTTTAGTGCTAG | 1.17 |
| TTAGGTATCCTTCTCCTTTTGTGCTAG | 7.31 |
| GAAGATGTCAAACTCACTCAGTGCTAG | -0.00152 |
| GAAGATATCAGACTGGAGACGTGCTAG | 0.0244 |
| GACGATATCAGTCTCGTGACGTGCTAG | 1.16 |
| GACGCTCTCAGTTTCGAGACGTGCTAG | 2.15 |
| TCATTAATCACATATACAACTGTGCTA | 0.556 |
| TTAGAACAGAGACTGGATTAGTGCTAG | -0.388 |
| GACGGTATGGACACTGGGGACGTGCTA | -0.356 |
| GGCGGTCTCGGTATCGGGACGTGCTAG | 1.6 |
| TTAGGACTGGACGATCGGTTAGTGCTA | -0.394 |
| CCATGTTGCAGACTCGAAGGGTGCTAG | 1.89 |
| GGCCCTATAGGTTTCTATATGTGCTAG | 0.985 |
| GGCTGTTTGGTCCTGAACCTGTGCTAG | -0.0211 |
| CTGCACTCCAGTCTGGGAGAGTGCTAG | 0.137 |
| GACGATTCCAGTTTCCAGACGTGCTAG | 3.95 |
| AGACCATCCTGTATGGATGTGTGCTAG | 0.48 |
| TTAGGACTGCTGTTCCTTTAGTGCTAG | -0.0475 |

Block 3
Target: CCNF, cyclin fold, Cln2 fusion (human)
Method: yeast growth competition, sequencing
Sample: yeast
Setting: strong parent motif
Relative to: not given
Reading: higher = stronger binding
Starting sequence: CDC25A docking peptide (human); PPHRRRLLFACSP; partner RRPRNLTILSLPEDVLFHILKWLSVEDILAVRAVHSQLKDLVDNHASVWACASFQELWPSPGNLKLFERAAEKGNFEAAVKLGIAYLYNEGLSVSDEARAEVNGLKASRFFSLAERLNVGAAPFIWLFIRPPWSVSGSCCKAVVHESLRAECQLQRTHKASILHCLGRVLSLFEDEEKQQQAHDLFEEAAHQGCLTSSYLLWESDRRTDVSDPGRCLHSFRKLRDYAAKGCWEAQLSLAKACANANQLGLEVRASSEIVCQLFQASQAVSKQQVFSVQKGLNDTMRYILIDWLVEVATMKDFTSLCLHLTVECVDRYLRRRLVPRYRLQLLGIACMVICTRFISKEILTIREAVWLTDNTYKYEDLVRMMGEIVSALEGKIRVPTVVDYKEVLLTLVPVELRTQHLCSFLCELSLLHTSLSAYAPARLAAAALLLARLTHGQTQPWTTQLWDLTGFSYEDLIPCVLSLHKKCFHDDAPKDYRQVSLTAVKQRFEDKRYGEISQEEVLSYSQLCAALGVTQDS
| Change | normalised enrichment score |
| --- | --- |
| F9I | 2.46 |
| R4P | 6.29 |
| H3V | 9.28 |
| R5E | 0.409 |
| H3P | 9.17 |
| R6W | 3.27 |
| C11S | 7.33 |
| L7N | 1.8 |
| P13K | 6.11 |
| S12P | 7.79 |
| H3L | 7.73 |
| S12V | 7.43 |
| L7Q | 0.887 |
| F9H | 1.43 |
| S12D | 7.63 |
| H3W | 6.95 |
| L7C | 2.25 |
| P2C | 6.81 |
| C11F | 8.34 |
| P2D | 4.87 |
| S12C | 7.33 |
| R6A | 4.95 |
| L8E | 6.97 |
| R4I | 4.21 |
| L8C | 6.84 |

Block 4
Target: Ras GTPase-activating protein-binding protein 1, C-terminal RGG region (G3BP1, Homo sapiens, UniProt Q13283)
Sequence of UniProt Q13283 (whole entry, looked up): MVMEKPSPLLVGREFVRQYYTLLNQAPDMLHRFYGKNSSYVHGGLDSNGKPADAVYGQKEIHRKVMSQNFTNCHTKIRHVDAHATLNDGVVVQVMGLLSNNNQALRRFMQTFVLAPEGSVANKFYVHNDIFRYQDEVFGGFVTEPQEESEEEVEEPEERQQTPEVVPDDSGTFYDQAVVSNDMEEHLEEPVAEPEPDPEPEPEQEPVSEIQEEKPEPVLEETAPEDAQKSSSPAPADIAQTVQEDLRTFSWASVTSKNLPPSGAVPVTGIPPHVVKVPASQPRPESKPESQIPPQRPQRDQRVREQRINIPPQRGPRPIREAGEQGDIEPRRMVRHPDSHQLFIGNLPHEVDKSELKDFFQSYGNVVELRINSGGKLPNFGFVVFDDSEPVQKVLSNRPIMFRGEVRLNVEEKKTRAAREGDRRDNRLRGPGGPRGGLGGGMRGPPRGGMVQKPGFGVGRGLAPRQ
Method: RNA Bind-n-Seq
Form: RNA
Sample: in vitro
Tested at: 1 µM
Setting: whole 134-nt RNA, ends assumed
Together with: 150 mM KCl
Relative to: input library
Reading: higher = stronger binding
All sequences stand within: GGGAGUUCUACAGUCCGACGAUC … UGGAAUUCUCGGGUGUCAAGG
| Sequence | log2 enrichment |
| --- | --- |
| CGGGAGGUGGAUUUUGUUUAUUUUUUUAGCUCAUUUCCAGGGGUGGGAAUUUUUUUUUAAUAUGUGUCAUGAAUAAAGUUGUUUUUGAAA | 3.39 |
| ACCAUGCAGGUGGGCAUCUUUGGGAAGUGGGGCAAGGGGGGGAUAGGGAGGGGGGUAACACUUUGGGAACAGGUGGUCCCAGGUCGUUCC | 2.76 |
| UCCUGUGCUACACAUCGUAUGUACCGAAUCGGGGUUUGGGGAAAAAAAGGGGAAAGGGGAAAGUAUUAUGUUACGCCGUUCGGAUCUGCA | 2.29 |
| UAACUUUAGAGGAGGAUCUGAUGGAUAUGGCAGUGGACGUGGAUUUGGGGAUGGCUAUAAUGGUUAUGGAGGAGGACCUGGAGGUGGCAA | -0.691 |
| CAAGUCCUGUGCUACACAUCGUAUGUACCGAAUCGGAAAGGGGAAAGGGAAAGGGAAAGUAUUAUGUUACGCCGUUCGGAUCUGCACUUC | 0.0402 |
| UUUUAUUCUUCCAUCUUUUCCCACAGGUGGCAGCUGCCAACAAGAAGCAUUAGAACAAACCAUGCUGGGUUAAUAAAUUGCCUCAUUCGU | -0.84 |
| GUGCUACACAUCGUAUGUACCGAAUCGGGGAAAAAAAGGGGUUUUUUUGGGGUUUUUUUGGGGAAAGUAUUAUGUUACGCCGUUCGGAUC | 0.434 |
| AAGUCCUGUGCUACACAUCGUAUGUACCGAAUCGGGGUUUGGGUUUGGGGUUUGGGAAAGUAUUAUGUUACGCCGUUCGGAUCUGCACUU | 1.64 |
| UCGGCUACACUGCCCGGAGAAUUCUCAAUGAGGAUGGCAGCCCUAACCUGGACUUCAAGCCUGAAGACCAGCCCCAUUUUGACAUCAAGG | -0.873 |

Repeated from above (block 3):
| Change | normalised enrichment score |
| --- | --- |
| H3V | 9.28 |
| L8C | 6.84 |
| R4P | 6.29 |
| S12P | 7.79 |
| L7N | 1.8 |
| S12D | 7.63 |
